Published values gathered from unrelated publications.
Each numbered part is a random draw from the data of one study; scales do not carry over between parts. Substitutions count along the parent as printed.

Block 1
Target: RING finger protein unkempt homolog, zinc fingers 1-6, GST-SBP tag (UNK, Homo sapiens, UniProt Q9C0B0, residues 30-357)
UniProt Q9C0B0, sequence (30-357, looked up): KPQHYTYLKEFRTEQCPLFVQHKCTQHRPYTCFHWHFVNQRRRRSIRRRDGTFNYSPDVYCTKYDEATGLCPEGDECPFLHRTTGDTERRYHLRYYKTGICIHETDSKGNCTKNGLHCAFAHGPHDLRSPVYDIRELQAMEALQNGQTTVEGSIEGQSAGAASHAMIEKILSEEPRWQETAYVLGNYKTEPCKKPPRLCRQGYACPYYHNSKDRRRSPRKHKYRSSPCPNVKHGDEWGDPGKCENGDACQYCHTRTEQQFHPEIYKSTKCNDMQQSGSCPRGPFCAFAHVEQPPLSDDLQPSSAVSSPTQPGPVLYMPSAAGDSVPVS
Method: RNA Bind-n-Seq
Molecule type: RNA
Sample: in vitro
Concentration: not given
Setting: RNA with constant flanks, human and mouse sites, ends assumed
Relative to: input RNA pool
Reading: higher = stronger binding
All sequences stand within: GGGAGUUCUACAGUCCGACGAUC … CAACAGAGGAUUGAGCAUCA
Sequence	bound/input enrichment [ratio]
UGUGAAAGAAAGGUUUUGCAUUCUGUCUACACAUUCGGCAGGAAUGAGUCCAGUUCCCUGUUUAGAUUCUUUGAGUGUAAUUUAUUGUGAAUGGCAGUUCAAAAUUCAGUUGAUCGGUCU	1.25
CCCUCCGCGGCGCUUUCUCCUCUUGGCGGGGUUGGGAGUCAUGUUUGGUUUUCUCAUUCUUGUUUUUGUUUUGUGUGGUGGGUUCACUGACCGGCGGUGUCCUCUGGCGGUCACCUCUUU	0.553
AUUUAAAAACAAAAAAGCAUAAAUAUUCUGGUCCUUCAGCAAUGCUUUCUCUGAAGAAAUAUUUAACGGAAGGACUUCUCCAGUUCACCAUCCUGCUGAGUCUGAUUGGGGUUCGGGUGG	0.445
UUUGAUGUCAUGGUGAUGCCCAAUCUCUAUGGCAACAUCGUCAACAAUGUCUGCGCGGGACUGGUCGGGGGCCCAGGCCUUGUGGCUGGGGCCAACUAUGGCCAUGUGUACGCGGUGUUU	0.178
GAAAUAUGUGGCAAGGCCUUCAAAUAUCCAUCAAGACUUUUAAAACAUAAGAUAAUUCAUACAAGAGAGAAACAAUACAAGUGUAAAGUGUGUGGAAAUGCCUUCUGCACUCCAUCUUCA	0.269
UGCCUCUCAUUCAAUCCCUACAGCGAGUUCAUUCUGGCAACUGGCUCUGCAGAUAAGACUGUAGCUUUAUGGGACCUGCGUAAUCUGAAACUAAAACUCCACACCUUUGAAUCGCAUAAG	0.171
GGGCGGCCGGUGGGGGAAUCCCCUGCCUUGGCCUUGCCUCCCCUUCCUGCCACGUGCCCCUAGUUAUUUUUUUUUUUUUAACACCAUGUGAUUAAGGUCGGCGCUGCCUCCCCCGACCCA	35
AUGGGCUUUCAUGUUAUCUAUAAGACACCUUGUGGUCUCUGCCUUCGGACAAUGCAGGAGAUAGAACGCUACCUUUUCGAGACUGGCUGUGACUUCCUCUUCCUGGAGAUGUUCUGUUUG	0.369
GGUAACAAGAGACUGGAUGCUGCUUAUCGUUCCAUGAACGGGAAAGGCCCCGUUUACUUACUUUUCAGUGUCAACGGCAGUGGACACUUCUGUGGCGUGGCAGAAAUGAAAUCUGCUGUG	0.152
UAUUCUUCAGCUACCAGUGAAUGGAGGCUAAGCUAUGUCAAUAAGGAAUUUGCUGUCUGUCCCUCUUACCCACCAAUUGUCACAGUGCCCAAAUCCAUCGAUGAUGAAGCUCUUCGGAAG	0.146
AUGCUCCGCCAGAUCCUCGGGCAAGCCAAGAAGCAUCCCAGCUUGAUUCCUCUCUUCGUAUUUAUUGGAGCAGGGGGUACUGGAGCAGCACUGUAUGUGAUGCGCUUGGCACUGUUUAAU	0.122

Block 2
Target: RNA binding protein fox-1 homolog 2, RRM domain, GST-SBP tag (RBFOX2, Homo sapiens, UniProt O43251-10, residues 100-194)
Method: RNA Bind-n-Seq
Molecule type: RNA
Sample: in vitro
Concentration: 365 nM
Setting: natural RNA segment, single round, ends assumed
Relative to: no-protein control
Reading: higher = stronger binding
All sequences stand within: GGGAGUUCUACAGUCCGACGAUC … UGGAAUUCUCGGGUGCCAA
Residues (chain): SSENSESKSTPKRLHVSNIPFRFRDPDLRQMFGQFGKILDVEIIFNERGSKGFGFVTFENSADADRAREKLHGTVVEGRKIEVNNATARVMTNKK
Sequence	RBNS enrichment (R)
CUUGCAAUUGCUUUGUCGUGGCAAGUGUGUUGUUCUACUCUCUCUUGUUUGAAACAAUGCUUGACAAUUCAGAAAUUAACCACUGAUGUGCUGUGGAAUGUGAUGCUUGU	8.59
UGAAAAGAGAGGAAAGAAUAUAACGUGAAAUGCUAGAUUUGACCUCCUCCCUGUUAUUUCCAAGUAGCUGGGAUUUUAAACUAGAUGACCUCAUUAACCAGUGCUUUACC	0.403
GGCACAGGGAGCCACUGAGGGUCACCCUGCCUUCCUCCUUGCUGGCCCAGCUGCUGUUUAUUUAUGCUUUUUGGUCUGUUUGUUUGAUCUUUUGCUUUUUUAAAAUUGUU	2.65
UGUGGCACUGAGGAGCUGACUUUGGUCAAAGGCCAGGCUCUGCCCAGCAGGGGACUUGACUGCCCUGGGCGCCCUGCCCCUCCCGCUGCGUGUCCAGGUCCAAAGUGGAG	0.522
AUUCAGAGACUUUUGCUUUGCUUUCCAACUUGUAUCCCUACAUUCUCACAACAGCCUUCUUACCUCGGGUGAGAGUCAUGAGCACCUUACCAGGCAGGGAGCUUCCCCAG	0.384
GAUACCAUGGGCAUGUGCUGAGUGGAUGCACCAGGGGGCAGCACAGCUCCAUGAUUCCCAGUGGGGCCCAAGCCAGGCCAAGGUGCAGUCAGUUAAUAGCAUUGGGACAG	1.54
GGCUCAGAUGUGUUCAUCAAAUACUCCUUUCAGAGCUGUUGUGGGUGUAAGUGACAUGAUGUGGCCAAAAAUCCAAACUGUGCAGUUGCGUUGUGACAAACAUGCAAUGU	0.417
AGAGAAGGCUGCAGGGAGGGGAGAGAACAGGAGGAUCCCGGGCCAGGGUGACUUCAGUGACAUUCCUUCCCUCCUUCACAAGCACGAAAAACUCGUUCGGAGAAAAGACA	5.3
CCUGUGAAACCUGUAUUAUACUGCUCUUCUGAAGUAAGACUUUUCUACACCGGUAGCCUUCGCUGUCUGUCAGUCAGGACCUCUGGUAUAGGUGAUGUAAAAUAACCGUA	0.347
UGAUGCCAUAAUUUUCUAUGGCUCACUAGCUACACUUCCUAGACAUGAGGACUGAUUCCUGUUCACACAACAAAUAUUCAGUGAAUGUCUACUAUGUGCCAGGUUCUGGG	0.218
CGUGCUUCUUGGUGUCUGAGCAGACAGACCCUGCCAGAGUAAACUGGCUGAGGGGAGUGUCCAUCAUAUGAAAGGGAGACAGGAGAGGAAGCUCUCCGUUGUCUUUCAGU	0.311
AGAACACUUCAGUAGCUAGCCCGUCUGGUUGAUUGUGCAUGGAACUGACAUGUUAACACCUGAUCACUCCCCCAGGCCCUUUUCCUGCCCCAUCCCUCCUAGGAAGAGAG	1.9

Block 3
Target: CEP164, C-terminal peptide (human)
Method: DHFR complementation, deep sequencing
Sample: yeast
Setting: single substitutions, model-inferred values
Relative to: wild type
Reading: higher = weaker binding
Starting sequence: PDZK1, PDZ domain 2 (human); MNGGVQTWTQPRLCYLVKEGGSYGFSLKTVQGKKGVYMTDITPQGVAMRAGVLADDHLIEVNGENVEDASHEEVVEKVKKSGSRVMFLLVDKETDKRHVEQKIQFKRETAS; partner HNRVKVYRF
Variant	binding free energy change
C14T	0.179 kcal/mol
R97Q	-0.0105 kcal/mol
E60N	0.189 kcal/mol
F105I	-0.129 kcal/mol
Y23E	1.06 kcal/mol
I103C	-0.0889 kcal/mol
R97K	-0.215 kcal/mol
S70A	-0.119 kcal/mol
P43K	0.377 kcal/mol
I59C	0.543 kcal/mol
Y15K	0.103 kcal/mol
F87K	1.77 kcal/mol
E60G	-0.0718 kcal/mol
G4L	0.0829 kcal/mol
N2D	-0.0488 kcal/mol
Y23K	1.45 kcal/mol
D40H	0.519 kcal/mol
A110K	-0.112 kcal/mol
G51T	1.43 kcal/mol
H71C	0.141 kcal/mol
M1L	-0.113 kcal/mol
G51H	0.972 kcal/mol
R49I	0.407 kcal/mol
A110W	-0.0938 kcal/mol
D68A	0.0887 kcal/mol

Block 4
Target: CEBPE, bZIP domain (human)
Method: DHFR protein complementation
Sample: yeast
Setting: single substitutions, most at no-binding floor
Relative to: wild-type JUN-FOS pair
Reading: higher = stronger binding
Starting sequence: JUN, bZIP domain (human); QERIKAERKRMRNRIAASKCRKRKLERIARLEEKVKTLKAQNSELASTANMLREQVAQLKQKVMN; partner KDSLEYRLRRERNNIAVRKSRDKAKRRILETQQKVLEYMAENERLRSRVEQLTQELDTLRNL
Variant	binding fitness [natural log]
E44W	-1.39
Q41A	-1.13
R53Y	-1.15
E44A	-1.15
V56F	-1.46
N42E	-1.51
L45A	-1.49
A49L	-0.701
L52S	-1.49
A29Q	-1.18
V35C	-1.06
K34E	-1.28
L38P	-1.49
E32R	-1.22
E33N	-1.29
E44R	-1.19
A40R	-1.09
T48F	-1.36

Block 5
Target: CCNB1, cyclin fold, Cln2 fusion (human)
Method: yeast growth competition, sequencing
Sample: yeast
Setting: weak parent motif
Relative to: not given
Reading: higher = stronger binding
Starting sequence: REPIN1 docking peptide (human); QSFRGWVALVLHL
Variant	normalised enrichment score
L13A	0.761
F3A	0.211
H12A	0.445
L11A	0.549
W6A	-0.136
Q1A	0.322

Block 6
Target: Sal-like protein 4, full length isoform A (SALL4, Homo sapiens, UniProt Q9UJQ4, residues 1-1053)
UniProt Q9UJQ4, sequence (whole entry, looked up): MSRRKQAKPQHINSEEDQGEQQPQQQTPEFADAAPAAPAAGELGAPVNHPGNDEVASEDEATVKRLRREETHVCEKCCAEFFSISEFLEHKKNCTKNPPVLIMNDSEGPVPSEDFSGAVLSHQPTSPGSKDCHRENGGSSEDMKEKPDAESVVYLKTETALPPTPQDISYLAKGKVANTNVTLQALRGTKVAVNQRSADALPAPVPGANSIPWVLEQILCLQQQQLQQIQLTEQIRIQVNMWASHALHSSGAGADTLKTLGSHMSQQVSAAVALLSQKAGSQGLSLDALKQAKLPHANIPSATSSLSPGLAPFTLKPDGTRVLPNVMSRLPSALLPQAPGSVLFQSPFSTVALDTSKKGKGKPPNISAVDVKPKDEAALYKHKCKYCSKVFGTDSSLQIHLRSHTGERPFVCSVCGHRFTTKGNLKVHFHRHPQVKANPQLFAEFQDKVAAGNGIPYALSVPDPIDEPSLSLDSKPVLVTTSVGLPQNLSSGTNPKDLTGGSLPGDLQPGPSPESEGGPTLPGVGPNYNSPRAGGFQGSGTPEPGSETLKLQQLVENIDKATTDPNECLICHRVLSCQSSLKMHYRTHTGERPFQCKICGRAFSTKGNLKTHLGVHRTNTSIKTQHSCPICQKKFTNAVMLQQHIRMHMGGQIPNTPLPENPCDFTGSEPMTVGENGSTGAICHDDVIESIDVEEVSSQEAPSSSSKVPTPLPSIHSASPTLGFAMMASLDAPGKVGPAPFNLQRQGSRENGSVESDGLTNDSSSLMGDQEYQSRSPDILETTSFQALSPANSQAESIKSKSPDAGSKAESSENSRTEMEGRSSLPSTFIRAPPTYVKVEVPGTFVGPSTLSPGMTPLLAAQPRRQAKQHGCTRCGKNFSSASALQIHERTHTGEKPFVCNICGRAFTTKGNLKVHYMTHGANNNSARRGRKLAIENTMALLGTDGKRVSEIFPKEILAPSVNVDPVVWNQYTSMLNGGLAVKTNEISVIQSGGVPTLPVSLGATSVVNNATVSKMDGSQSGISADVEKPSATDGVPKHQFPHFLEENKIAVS
Method: universal PBM
Molecule type: double-stranded DNA, one strand shown
Sample: in vitro
Concentration: 600 nM
Setting: 8-mer, flanks averaged, mean of replicates
Reading: higher = stronger binding
Sequence	E-score
GGAAAACA	0.146
AGGACAAC	0.0428
AGGCATAC	-0.00971
CCAGCTCA	-0.128
CCGTATCA	0.0372
AAGGACCG	-0.178
ACGACTTA	0.0143
ATTGTGAG	0.143
GACCTGGC	-0.33
GCGTGTAC	-0.0986
TAGAATGA	0.174
TCCTTACA	0.0237
CAATTCAG	0.0047
CAGTCCCG	-0.295
AATAGCGC	0.0798
ATTCATCC	0.101
ATGCATTA	0.301
CAACCATA	0.216
AAGAAGCC	-0.0157
ACAAGGGT	0.0437
ATGACCGA	0.117
AAGACTTA	0.171
CAAGGGCA	-0.182
AACATGCA	0.246
AGAGTGCA	0.00713

Further values, each from its own experiment
Substance	target	test	system	conditions	how to read	quantity	value
PhoQ, residues 284 288 289 292 302 303 GASLAW	PhoP, residues 12 14 15 18 19 TQAIL (Escherichia coli, UniProt P23836)	Sort-seq, refers to: YFP reporter	E. coli	PhoQ-PhoP variant library, with: 10 µM Mg2+	relative to: high Mg2+ state, higher = stronger signaling	fold induction	2.88

A few entries again (block 6):
Sequence	E-score
AACATGCA	0.246
ATTGTGAG	0.143
ATTCATCC	0.101
AATAGCGC	0.0798
GCGTGTAC	-0.0986
AAGACTTA	0.171
